Measured values pooled from the literature.
Compare with care: the assays were run in different laboratories. Numbers after ± are the reported error.
CDK17: Cyclin-dependent kinase 17 (CDK17, Homo sapiens, UniProt Q00537)
UniProt Q00537, sequence (whole entry, looked up): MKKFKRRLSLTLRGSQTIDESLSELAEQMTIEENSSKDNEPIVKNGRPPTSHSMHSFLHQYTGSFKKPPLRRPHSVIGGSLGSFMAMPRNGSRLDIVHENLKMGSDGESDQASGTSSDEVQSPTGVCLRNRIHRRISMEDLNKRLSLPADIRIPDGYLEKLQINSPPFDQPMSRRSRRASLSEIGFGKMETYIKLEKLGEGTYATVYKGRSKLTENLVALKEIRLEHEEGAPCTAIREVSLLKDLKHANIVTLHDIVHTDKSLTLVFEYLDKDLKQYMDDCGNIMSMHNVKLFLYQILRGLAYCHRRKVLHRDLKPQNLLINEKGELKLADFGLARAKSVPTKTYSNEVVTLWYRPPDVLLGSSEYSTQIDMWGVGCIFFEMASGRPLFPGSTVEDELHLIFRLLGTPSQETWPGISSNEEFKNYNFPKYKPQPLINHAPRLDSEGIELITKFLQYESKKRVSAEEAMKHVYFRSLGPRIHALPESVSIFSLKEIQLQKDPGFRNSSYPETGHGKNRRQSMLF
PARP1: Poly [ADP-ribose] polymerase 1 (PARP1, Homo sapiens, UniProt P09874)
UniProt P09874, sequence (whole entry, looked up): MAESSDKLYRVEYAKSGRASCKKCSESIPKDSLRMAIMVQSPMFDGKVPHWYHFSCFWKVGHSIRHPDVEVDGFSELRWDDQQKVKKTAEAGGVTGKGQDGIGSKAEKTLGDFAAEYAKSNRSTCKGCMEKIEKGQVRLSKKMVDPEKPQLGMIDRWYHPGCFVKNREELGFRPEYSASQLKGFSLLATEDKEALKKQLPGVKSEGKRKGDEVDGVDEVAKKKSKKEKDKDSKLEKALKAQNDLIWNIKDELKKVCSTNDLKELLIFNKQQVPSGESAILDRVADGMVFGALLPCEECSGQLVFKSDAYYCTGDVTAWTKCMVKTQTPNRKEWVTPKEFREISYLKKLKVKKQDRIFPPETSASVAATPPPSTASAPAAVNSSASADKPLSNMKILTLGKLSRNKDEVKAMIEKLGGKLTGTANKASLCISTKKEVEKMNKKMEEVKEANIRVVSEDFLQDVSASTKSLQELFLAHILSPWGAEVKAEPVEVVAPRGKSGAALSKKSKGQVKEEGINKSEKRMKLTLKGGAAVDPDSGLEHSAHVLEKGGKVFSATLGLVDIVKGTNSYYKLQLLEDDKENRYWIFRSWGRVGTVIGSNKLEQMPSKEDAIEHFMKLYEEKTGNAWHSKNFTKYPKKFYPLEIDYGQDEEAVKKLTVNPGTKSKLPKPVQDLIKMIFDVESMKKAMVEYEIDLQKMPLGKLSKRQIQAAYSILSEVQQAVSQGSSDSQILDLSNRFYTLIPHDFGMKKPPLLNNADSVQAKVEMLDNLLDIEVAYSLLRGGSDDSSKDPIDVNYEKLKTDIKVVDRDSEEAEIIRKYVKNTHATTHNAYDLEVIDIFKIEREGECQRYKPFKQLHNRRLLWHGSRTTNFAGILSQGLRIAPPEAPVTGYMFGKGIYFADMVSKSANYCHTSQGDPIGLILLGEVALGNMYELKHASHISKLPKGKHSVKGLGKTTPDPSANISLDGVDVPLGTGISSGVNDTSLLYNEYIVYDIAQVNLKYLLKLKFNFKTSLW
UniProt P43116, sequence (whole entry, looked up): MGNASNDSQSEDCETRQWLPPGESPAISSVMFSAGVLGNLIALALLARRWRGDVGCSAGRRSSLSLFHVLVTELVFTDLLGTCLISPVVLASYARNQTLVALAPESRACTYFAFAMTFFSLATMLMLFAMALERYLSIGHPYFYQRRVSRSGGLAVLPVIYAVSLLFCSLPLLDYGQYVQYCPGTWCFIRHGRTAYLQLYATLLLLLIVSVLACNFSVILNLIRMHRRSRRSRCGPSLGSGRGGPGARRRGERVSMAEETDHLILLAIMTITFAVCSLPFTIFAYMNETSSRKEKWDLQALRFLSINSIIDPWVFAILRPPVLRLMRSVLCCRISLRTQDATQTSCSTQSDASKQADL
UniProt P57771, sequence (whole entry, looked up): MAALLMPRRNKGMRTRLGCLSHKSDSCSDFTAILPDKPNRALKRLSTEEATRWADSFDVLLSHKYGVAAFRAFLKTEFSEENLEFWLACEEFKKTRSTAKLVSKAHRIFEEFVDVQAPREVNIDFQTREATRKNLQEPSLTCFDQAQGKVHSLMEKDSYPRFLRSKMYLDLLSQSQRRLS
UniProt Q8NEB9, sequence (whole entry, looked up): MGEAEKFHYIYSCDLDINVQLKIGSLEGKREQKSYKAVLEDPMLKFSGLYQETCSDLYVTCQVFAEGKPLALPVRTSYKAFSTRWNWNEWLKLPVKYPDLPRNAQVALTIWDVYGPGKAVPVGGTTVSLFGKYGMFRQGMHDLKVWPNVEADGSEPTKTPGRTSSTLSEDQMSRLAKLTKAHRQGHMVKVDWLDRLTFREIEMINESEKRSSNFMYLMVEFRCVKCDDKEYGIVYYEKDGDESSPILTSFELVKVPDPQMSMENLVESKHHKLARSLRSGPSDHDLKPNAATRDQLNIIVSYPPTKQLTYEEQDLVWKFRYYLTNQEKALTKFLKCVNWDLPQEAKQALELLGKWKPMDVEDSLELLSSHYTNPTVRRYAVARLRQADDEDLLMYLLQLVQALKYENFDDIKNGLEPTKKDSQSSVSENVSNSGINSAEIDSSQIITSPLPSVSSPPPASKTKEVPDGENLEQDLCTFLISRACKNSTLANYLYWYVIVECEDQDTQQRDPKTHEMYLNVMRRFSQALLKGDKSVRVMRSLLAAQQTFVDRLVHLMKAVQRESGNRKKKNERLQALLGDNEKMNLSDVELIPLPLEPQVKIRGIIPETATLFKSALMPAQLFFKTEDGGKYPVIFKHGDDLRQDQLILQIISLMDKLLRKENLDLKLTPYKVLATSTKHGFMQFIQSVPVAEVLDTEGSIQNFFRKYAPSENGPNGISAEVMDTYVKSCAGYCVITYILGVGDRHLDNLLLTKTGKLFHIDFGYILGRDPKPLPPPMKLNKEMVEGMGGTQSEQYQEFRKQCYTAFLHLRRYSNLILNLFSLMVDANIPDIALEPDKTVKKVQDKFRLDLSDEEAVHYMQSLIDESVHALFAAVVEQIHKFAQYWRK
UniProt O60733, sequence (whole entry, looked up): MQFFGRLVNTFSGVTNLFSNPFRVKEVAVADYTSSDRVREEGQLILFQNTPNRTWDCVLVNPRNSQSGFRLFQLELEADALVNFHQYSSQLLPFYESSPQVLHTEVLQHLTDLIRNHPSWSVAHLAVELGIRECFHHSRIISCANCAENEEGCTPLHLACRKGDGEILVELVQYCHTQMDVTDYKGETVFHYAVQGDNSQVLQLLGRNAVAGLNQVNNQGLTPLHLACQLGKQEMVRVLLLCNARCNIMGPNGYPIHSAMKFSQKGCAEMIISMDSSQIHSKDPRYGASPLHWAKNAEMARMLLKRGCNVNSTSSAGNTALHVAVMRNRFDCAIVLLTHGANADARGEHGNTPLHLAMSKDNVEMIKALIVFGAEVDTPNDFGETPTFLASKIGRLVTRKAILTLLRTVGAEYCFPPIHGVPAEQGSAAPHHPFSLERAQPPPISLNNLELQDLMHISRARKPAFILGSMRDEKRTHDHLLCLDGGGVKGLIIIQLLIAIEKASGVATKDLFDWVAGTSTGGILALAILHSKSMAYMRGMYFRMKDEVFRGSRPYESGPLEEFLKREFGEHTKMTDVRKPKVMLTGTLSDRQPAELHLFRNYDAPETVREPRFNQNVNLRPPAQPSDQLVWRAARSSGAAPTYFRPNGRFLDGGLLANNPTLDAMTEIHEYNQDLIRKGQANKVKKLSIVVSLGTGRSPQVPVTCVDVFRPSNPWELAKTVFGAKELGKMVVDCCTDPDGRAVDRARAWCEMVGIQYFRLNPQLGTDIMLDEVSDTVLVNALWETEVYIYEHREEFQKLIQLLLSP
UniProt Q9UBY5, sequence (whole entry, looked up): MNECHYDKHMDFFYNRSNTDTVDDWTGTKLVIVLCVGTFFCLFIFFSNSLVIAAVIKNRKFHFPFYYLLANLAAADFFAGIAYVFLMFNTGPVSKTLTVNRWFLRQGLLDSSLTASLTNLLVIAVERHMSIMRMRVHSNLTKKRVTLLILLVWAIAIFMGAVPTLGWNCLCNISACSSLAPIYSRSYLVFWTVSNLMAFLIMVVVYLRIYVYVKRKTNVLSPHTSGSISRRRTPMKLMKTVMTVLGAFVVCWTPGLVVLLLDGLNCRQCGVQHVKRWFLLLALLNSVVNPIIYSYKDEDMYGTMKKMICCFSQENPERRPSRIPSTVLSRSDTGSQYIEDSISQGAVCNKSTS
UniProt O00311, sequence (whole entry, looked up): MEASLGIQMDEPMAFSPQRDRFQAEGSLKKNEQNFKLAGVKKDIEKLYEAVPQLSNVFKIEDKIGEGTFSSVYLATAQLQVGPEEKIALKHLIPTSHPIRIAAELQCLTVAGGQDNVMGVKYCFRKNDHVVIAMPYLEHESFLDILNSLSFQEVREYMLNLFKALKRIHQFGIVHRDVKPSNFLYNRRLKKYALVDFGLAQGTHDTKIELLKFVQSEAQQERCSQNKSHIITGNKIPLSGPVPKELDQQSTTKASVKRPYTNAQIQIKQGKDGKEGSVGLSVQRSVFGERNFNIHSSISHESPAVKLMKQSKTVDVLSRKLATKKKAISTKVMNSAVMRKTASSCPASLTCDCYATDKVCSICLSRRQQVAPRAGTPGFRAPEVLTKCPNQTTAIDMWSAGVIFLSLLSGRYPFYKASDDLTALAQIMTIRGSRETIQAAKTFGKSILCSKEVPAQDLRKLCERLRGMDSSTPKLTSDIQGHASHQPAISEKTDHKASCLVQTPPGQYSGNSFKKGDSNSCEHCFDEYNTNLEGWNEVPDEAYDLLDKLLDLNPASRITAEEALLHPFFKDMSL

Substance	target	test	system	conditions	scale	inhibition
Cc1ccc(-n2sc(=O)n(Cc3ccc(F)cc3)c2=O)cc1	Regulator of G-protein signaling 8 (Homo sapiens, UniProt P57771)	Gα binding, irreversible inhibitor, FCPIA after washing	–	20 µM, early time points, with: Gαo	–	~20%
NS(=O)(=O)c1ccc(N2N=C(c3ccc(F)cc3O)CC2c2ccc(Br)cc2)cc1 (centres unmarked)	CA9 (Homo sapiens, UniProt Q16790)	enzyme activity, inhibitor	–	1 mM	–	25%
C/C=C/C=C/C=C/CC/C=C/C=C/C(=O)NCC(C)C	PTGER2 (Homo sapiens, UniProt P43116)	antagonist, DiscoveRX gpcrMAX	–	concentration not given, negative means agonist activity	–	-52%
Cc1c(Nc2nccc3cc(CN4CC[C@@H](O)C4)cnc23)cccc1-c1cccc(-c2nc3cc(CN4CC[C@@H](C(=O)O)C4)cc(C#N)c3o2)c1C	CD274 (Homo sapiens, UniProt Q9NZQ7)	unoccupied cell-surface PD-L1	BALB/c nu/nu mice, MDA-MB-231 xenograft, tumour	150 mg/kg single dose, 30 min	–	> 50%
CC(C)(C)c1cnc(CSc2cnc(NC(=O)C3CCNCC3)s2)o1	CDK17	probe labeling, KiNativ live-cell profiling	MOLT-4 CRBN knockout	0.25 µM	–	76.4%
CCCC1OC(=O)C1CCCCc1ccccc1 (centres unmarked)	PLA2G6 (Homo sapiens, UniProt O60733)	enzyme activity, radioactive mixed micelle	–	0.091 mole fraction, diastereomer mixture	–	97 to 100%
Cc1cc(NC(=O)c2cccc(NC(=O)/C=C/CN(C)C)c2)ccc1Nc1nccc(-c2cccnc2)n1	PIK3C3 (Homo sapiens, UniProt Q8NEB9)	ATP-biotin probe labeling, KiNativ	A-375	1 µM, 3 h, first of two sites	–	18.1%
O=C(O)CCC(=O)N1CCN(c2ccc(Nc3ncc(C(=O)Nc4c(F)cccc4Cl)c(NCC4CCCO4)n3)cc2)CC1 (centres unmarked)	Activated CDC42 kinase 1, Tyr284 phosphorylation (TNK2, Homo sapiens, UniProt Q07912)	Tyr284 autophosphorylation, inhibitor, immunoblotting	LAPC4	5 µM, 16 h, with: EGF	negative means increased phosphorylation	74.5%
CN(C)c1ccc(C(=C2C=CC(=[N+](C)C)C=C2)c2ccc(N(C)C)cc2)cc1	Cell division cycle 7-related protein kinase, with DBF4 (CDC7, Homo sapiens, UniProt O00311)	kinase activity, scintillation proximity	–	10 µM, with: Dbf4	–	49%
O=C(O)c1ccc2ccccc2c1	Glutamate NMDA receptor; Grin1/Grin2a (Grin1/Grin2a, Rattus norvegicus, UniProt P35439+Q00959)	ion current, two-electrode voltage clamp	–	100 µM, oocytes	–	~30%
lepirudin	Prothrombin, thrombin form (Mus musculus, UniProt P19221)	thrombin proteolysis	50% mouse serum	0.5 mg/mL, 20 min, 37 °C	–	> 90%
O=C1CCCc2c(O)cccc2N1	PARP1	enzyme activity, inhibitor	–	10 µM	–	> 30%
C=CC(=O)N1CCN(c2nc(OC[C@@H]3CCCN3C)nc3c(F)c(-c4nc(N)cc(C)c4C(F)(F)F)c(Cl)cc23)[C@@H](C)C1	GTPase KRas, with RAF1 RBD (KRAS, Homo sapiens, UniProt P01116, G12C)	–	MIA PaCa-2	1 µM	–	20%
CN(C)C/C=C/C(=O)Nc1cccc(C(=O)Nc2ccc(Nc3nccc(-c4c(-c5ccccc5)nn5ccccc45)n3)cc2)c1	PRKDC (Homo sapiens, UniProt P78527)	ATP-biotin probe labeling, KiNativ	A-375	1 µM, 3 h, first of two sites	–	23.3%
c1ccc2c(c1)CCCn1nnnc1-2	PARP1	enzyme activity, inhibitor	–	10 µM	–	0%
c1cnc(NCCCn2ccnc2)cn1	Fe-SOD (Leishmania braziliensis)	–	Leishmania braziliensis	concentration not given, maximum over tested range	–	~100%
CC(C)(C)c1cnc(CSc2cnc(NC(=O)C3CCN(CC(=O)NCCOCCOCCOCCNc4cccc5c4C(=O)N(C4CCC(=O)NC4=O)C5=O)CC3)s2)o1 (centres unmarked)	CDK17	probe labeling, KiNativ live-cell profiling	MOLT-4	0.25 µM	–	18.7%
O=C1NCC(c2ccccc2)C(O)c2ccccc21 (racemic)	PARP1	enzyme activity, inhibitor, chemiluminescent	–	10 µM	–	~3%
Cc1ccc(Oc2ccc3c(c2)C(=O)N(CC(=O)O)C3=O)cc1	LPAR3 (Homo sapiens, UniProt Q9UBY5)	calcium signal, antagonist	–	10 µM	–	> 50%
CC12CCC(CC1)C(C)(C)O2	odorant receptor 32, with Orco (Culex quinquefasciatus, UniProt A0A0K0KUF8)	ion current, inverse agonist, two-electrode voltage clamp	Xenopus oocytes	100 µM, pH 7.6, with: 100 µM methyl salicylate	–	31 ± 7.6%

Repeated from above:
Substance	target	test	system	conditions	scale	inhibition
Cc1ccc(-n2sc(=O)n(Cc3ccc(F)cc3)c2=O)cc1	Regulator of G-protein signaling 8 (Homo sapiens, UniProt P57771)	Gα binding, irreversible inhibitor, FCPIA after washing	–	20 µM, early time points, with: Gαo	–	~20%
O=C(O)c1ccc2ccccc2c1	Glutamate NMDA receptor; Grin1/Grin2a (Grin1/Grin2a, Rattus norvegicus, UniProt P35439+Q00959)	ion current, two-electrode voltage clamp	–	100 µM, oocytes	–	~30%
